Assay results collected from several papers.
Protocols differ between the studies behind these lines.

Cn1cnc(Cn2c(=O)[nH]/c(=N\c3cc4cn(C)nc4cc3Cl)n(Cc3cc(F)c(F)cc3F)c2=O)n1  any TEAE, Severe severity (human, normal renal function; oral, 375 mg): 0%
CC[C@H](C)[C@H](NC(=O)[C@H](CC(C)C)NC(=O)[C@H](Cc1c[nH]c2ccccc12)NC(=O)[C@H](CCC(N)=O)NC(=O)[C@@H](NC(=O)[C@H](Cc1ccccc1)NC(=O)[C@H](C)NC(=O)[C@H](CCCCNC(=O)COCCOCCNC(=O)COCCOCCNC(=O)CC[C@H](NC(=O)CCCCCCCCCCCCCCCCCCC(=O)O)C(=O)O)NC(=O)[C@H](CCC(N)=O)NC(=O)[C@H](C)NC(=O)[C@@H](NC(=O)[C@H](CCCCN)NC(=O)[C@H](CC(=O)O)NC(=O)[C@H](CC(C)C)NC(=O)C(C)(C)NC(=O)[C@@H](NC(=O)[C@H](CO)NC(=O)[C@H](Cc1ccc(O)cc1)NC(=O)[C@H](CC(=O)O)NC(=O)[C@H](CO)NC(=O)[C@@H](NC(=O)[C@H](Cc1ccccc1)NC(=O)[C@@H](NC(=O)CNC(=O)[C@H](CCC(=O)O)NC(=O)C(C)(C)NC(=O)[C@@H](N)Cc1ccc(O)cc1)[C@@H](C)O)[C@@H](C)O)[C@@H](C)CC)[C@@H](C)CC)C(C)C)C(=O)N[C@@H](C)C(=O)NCC(=O)NCC(=O)N1CCC[C@H]1C(=O)N[C@@H](CO)C(=O)N[C@@H](CO)C(=O)NCC(=O)N[C@@H](C)C(=O)N1CCC[C@H]1C(=O)N1CCC[C@H]1C(=O)N1CCC[C@H]1C(=O)N[C@@H](CO)C(N)=O  application site erythema (healthy human; 0.5 mg, single ascending dose): 0%
KLLEQWNLV  frequency of responding donors (AIM; peptide, CD8+ T cells from PBMC, human donors; HLA-A*02:01 restricted, unit not given; reference: positive over tested donors): 25
Nc1ncnc2c([C@@H]3N[C@H](CO)[C@@H](O)[C@H]3O)c[nH]c12  infected cells (Marburg virus; viral replication, antibody staining; HeLa, Musoke; 50 µM, 1 h): 0.8%
KLLKSIAATRGATVV  responding donors (human CD4 T cells; AIM; peptide): 6%
N[C@@H](CC(=O)N1CCc2c(nc(C(F)(F)F)nc2C(F)(F)F)C1)CN1CC(F)(F)CCC1=O  inhibition (Replicase polyprotein 1ab, main protease (rep, Severe acute respiratory syndrome coronavirus 2, UniProt P0DTD1); reporter gene (Gaussia luciferase), inhibitor; 20 µM): 0.655%

Some of these lines once more:
N[C@@H](CC(=O)N1CCc2c(nc(C(F)(F)F)nc2C(F)(F)F)C1)CN1CC(F)(F)CCC1=O  inhibition (Replicase polyprotein 1ab, main protease (rep, Severe acute respiratory syndrome coronavirus 2, UniProt P0DTD1); reporter gene (Gaussia luciferase), inhibitor; 20 µM): 0.655%
